Published values gathered from unrelated publications.
Compare with care: the assays were run in different laboratories. ± marks the error that the study gave. ≈ marks a conversion by molar mass, not a printed value.

Structure (SMILES)	organism	test	test system	setting	scale	measurement	value
O=c1ccc2nc3ccc(OCc4ccc([N+](=O)[O-])o4)cc3oc-2c1I	Mycobacterium tuberculosis	–	mc2 6206, ddn mutant, PA-824-resistant	–	–	MIC90	no effect
CC[C@H](C)[C@H](NC(=O)[C@H](Cc1ccc(O)cc1)NC(=O)[C@H](CO)NC(=O)[C@H](CCC(=O)O)NC(=O)[C@H](CCC(=O)O)NC(=O)[C@H](CC(C)C)NC(=O)[C@H](CCCCN)NC(=O)[C@H](CCCCN)NC(=O)[C@@H](NC(=O)[C@@H](NC(=O)[C@H](CCC(=O)O)NC(=O)[C@H](CCC(=O)O)NC(=O)[C@H](CC(C)C)NC(=O)[C@H](CCCCN)NC(=O)[C@H](CCCCN)NC(=O)[C@H](CCSC)NC(=O)[C@H](CCC(=O)O)NC(=O)[C@H](Cc1ccc(O)cc1)NC(=O)[C@H](CCC(=O)O)NC(=O)[C@H](CC(C)C)NC(=O)[C@H](CC(=O)O)NC(=O)[C@H](CC(C)C)NC(=O)[C@H](CC(C)C)NC(=O)[C@@H](NC(=O)[C@@H](NC(=O)[C@H](CC(N)=O)NC(=O)[C@@H](NC(=O)[C@H](CCC(N)=O)NC(=O)[C@@H](NC(=O)[C@H](CC(C)C)NC(=O)[C@H](CO)NC(C)=O)[C@@H](C)O)[C@@H](C)CC)[C@@H](C)O)[C@@H](C)O)C(C)C)C(C)C)C(=O)N[C@@H](CC(=O)O)C(=O)N[C@@H](CC(C)C)C(=O)N[C@@H](CCCCN)C(=O)N[C@@H](CCC(=O)O)C(=O)N[C@@H](CC(C)C)C(N)=O	influenza A virus	viral replication	MDCK, A/Puerto Rico/8/34 H1N1	72 h	–	EC50	> 20 µM
O=c1ccc2nc3ccc(OCc4ccc([N+](=O)[O-])o4)cc3oc-2c1	Mycobacterium tuberculosis	–	mc2 6206 PA-824-resistant ddn mutant	7 days	–	MIC90	0.25 µM (≈ 0.0846 µg/mL)
O=c1oc(-c2ccccn2)ns1	Mycobacterium bovis BCG	–	–	25 µM	–	reduction in viable count	1 log CFU
O=c1ccc2nc3ccc(OCCCCF)cc3oc-2c1	Mycobacterium tuberculosis	–	mc2 6206 clofazimine-resistant fbiC mutant	7 days	–	MIC90	5.7 µM (≈ 1.64 µg/mL)
CCCCCCCCCCCCCCCC(=O)NCCCC[C@H](NC(=O)CCNC(=O)[C@H](CCCCN)NC(=O)[C@H](CCCCN)NC(=O)[C@H](CCC(N)=O)NC(=O)[C@@H](NC(=O)[C@H](CCC(=O)O)NC(=O)[C@H](CCC(=O)O)NC(=O)[C@@H](NC(=O)[C@H](CCCCN)NC(=O)[C@H](CCCCN)NC(=O)[C@H](CCC(N)=O)NC(=O)[C@@H](NC(=O)[C@H](CCC(=O)O)NC(=O)[C@H](CCC(=O)O)NC(=O)[C@@H](NC(=O)[C@H](CCCCN)NC(=O)[C@H](CCCCN)NC(=O)[C@H](CCC(N)=O)NC(=O)[C@@H](NC(=O)[C@H](CCC(=O)O)NC(=O)[C@H](CCC(=O)O)NC(=O)[C@@H](NC(=O)[C@H](CCCCN)NC(=O)[C@H](CCCCN)NC(=O)[C@H](CCC(N)=O)NC(=O)[C@@H](NC(=O)[C@H](CCC(=O)O)NC(=O)[C@H](CCC(=O)O)NC(=O)[C@@H](NC(=O)[C@H](CCCCN)NC(=O)[C@H](CCCCN)NC(=O)[C@H](CCC(N)=O)NC(=O)[C@@H](NC(=O)[C@H](CCC(=O)O)NC(=O)[C@H](CCC(=O)O)NC(=O)[C@@H](NC(C)=O)[C@@H](C)CC)[C@@H](C)CC)[C@@H](C)CC)[C@@H](C)CC)[C@@H](C)CC)[C@@H](C)CC)[C@@H](C)CC)[C@@H](C)CC)[C@@H](C)CC)[C@@H](C)CC)C(N)=O	influenza A virus	–	MDCK, A/Hong Kong/8/68 H3N2	–	baseline: CC50 over EC50	selectivity index	> 143
COCOc1ccc2nc3ccc(=O)c(I)c-3oc2c1	Mycobacterium tuberculosis	–	mc2 6206 PA-824-resistant ddn mutant	7 days	–	MIC90	13 µM (≈ 4.98 µg/mL)
NNC(=O)c1ccncc1	Mycobacterium bovis	–	BCG Tac^r10.1, thyA H147Y missense	TA-C-resistant thyA mutant	–	MIC50	0.4 µM (≈ 0.0549 µg/mL)
O=c1ccc2nc3ccc(OCC4CCCCC4)cc3oc-2c1	Mycobacterium tuberculosis	–	mc2 6206 clofazimine-resistant fbiC mutant	7 days	–	MIC90	68 µM (≈ 21 µg/mL)
Nc1ccc(C(=O)O)c(O)c1	Mycobacterium bovis	–	BCG Tac^r10.2, thyA W98R missense	TA-C-resistant thyA mutant	–	MIC50	> 100 µM
Cc1cc2c(c(=S)[nH]1)C(=O)O/C2=C\c1c[nH]c2ccc(F)cc12	Influenza A virus	viral replication, CPE, MTT	MDCK, A/Hong Kong/8/68 (H3N2)	72 h	–	EC50	17.4 ± 6.3 µM
Cc1cccc(-c2nsc(=O)o2)c1	Mycobacterium bovis BCG	–	–	25 µM	–	reduction in viable count	0.8 log CFU
O=[N+]([O-])c1ccc(N2CCN(c3ccc([N+](=O)[O-])cc3[N+](=O)[O-])CC2)c([N+](=O)[O-])c1	Pseudomonas aeruginosa	–	ATCC 29853	–	–	MIC	> 500 µg/mL
O=c1oc(-c2ccco2)ns1	Mycobacterium bovis BCG	–	–	25 µM	–	reduction in viable count	1 log CFU
CCC(C)C1NC(=O)/C(=C(/C)O)C1=O (stereo not shown)	Arabidopsis thaliana	apo-pHusion imaging, measured: apoplastic pH	elongating root cells	10 µM	–	onset of alkalinization	~90 s
CN(CC(=O)N(Cc1ccc(C2CCCCC2)cc1)c1ccc(C(=O)O)cc1)S(=O)(=O)c1c(F)c(F)c(F)c(F)c1F	vesicular stomatitis virus	viral replication	VSV-eGFP	concentration not given	–	inhibition	66%
CO[C@H]1/C=C/O[C@@]2(C)Oc3c(C)c(O)c4c(O)c(c(/C=N/N5CCN(C)CC5)c(O)c4c3C2=O)NC(=O)/C(C)=C\C=C\[C@H](C)[C@H](O)[C@@H](C)[C@@H](O)[C@@H](C)[C@H](OC(C)=O)[C@@H]1C	Mycobacterium bovis BCG	bacterial growth	thyA mutant	thyA mutant	–	MIC50	0.0016 µM (≈ 0.00132 µg/mL)
CCOc1ccc2nc3ccc(=O)cc-3oc2c1	Mycobacterium tuberculosis	–	mc2 6206 bedaquiline-resistant MmpL5 regulator mutant	7 days	–	MIC90	33 µM (≈ 7.96 µg/mL)
CC1(C)CCC(Cc2cc(O)c(-c3ccccc3)c(=O)[nH]2)CC1	Mycobacterium bovis	–	BCG	concentration not given	–	resistance frequency	1e-08 per cell
COC(=O)COc1ccc2nc3ccc(=O)cc-3oc2c1	Mycobacterium tuberculosis	–	mc2 6206 clofazimine-resistant fbiC mutant	7 days	–	MIC90	55 µM (≈ 15.7 µg/mL)
CC(=O)N1C[C@@H](COP(=O)(N(C)C)N2C[C@@H](COP(=O)(N(C)C)N3C[C@@H](COP(=O)(N(C)C)N4C[C@@H](COP(=O)(N(C)C)N5C[C@@H](COP(=O)(N(C)C)N6C[C@@H](COP(=O)(N(C)C)N7C[C@@H](COP(=O)(N(C)C)N8C[C@@H](COP(=O)(N(C)C)N9C[C@@H](COP(=O)(N(C)C)N%10C[C@@H](COP(=O)(N(C)C)N%11C[C@@H](COP(=O)(N(C)C)N%12C[C@@H](COP(=O)(N(C)C)N%13C[C@@H](COP(=O)(N(C)C)N%14C[C@@H](COP(=O)(N(C)C)N%15C[C@@H](COP(=O)(N(C)C)N%16C[C@@H](COP(=O)(N(C)C)N%17C[C@@H](COP(=O)(N(C)C)N%18C[C@@H](COP(=O)(N(C)C)N%19C[C@@H](COP(=O)(N(C)C)N%20C[C@@H](COP(=O)(N(C)C)N%21C[C@@H](COP(=O)(N(C)C)N%22C[C@@H](COP(=O)(N(C)C)N%23C[C@@H](COP(=O)(N(C)C)N%24CCN(C(=O)CCCN%25C(=O)CC(SC[C@H](NC(=O)[C@H](CCCNC(=N)N)NC(=O)[C@H](CCCNC(=N)N)NC(=O)[C@H](CCCNC(=N)N)NC(=O)[C@H](CCCNC(=N)N)NC(=O)[C@H](Cc%26ccccc%26)NC(=O)[C@H](Cc%26ccccc%26)NC(=O)[C@H](CCCNC(=N)N)NC(=O)[C@H](CCCNC(=N)N)NC(=O)[C@H](CCCNC(=N)N)NC(=O)[C@H](CCCNC(=N)N)NC(=O)[C@@H](N)CCCNC(=N)N)C(N)=O)C%25=O)CC%24)O[C@@H](n%24cnc%25c(=O)[nH]c(N)nc%25%24)C%23)O[C@@H](n%23cc(C)c(=O)[nH]c%23=O)C%22)O[C@@H](n%22ccc(N)nc%22=O)C%21)O[C@@H](n%21cnc%22c(N)ncnc%22%21)C%20)O[C@@H](n%20cc(C)c(=O)[nH]c%20=O)C%19)O[C@@H](n%19ccc(N)nc%19=O)C%18)O[C@@H](n%18cc(C)c(=O)[nH]c%18=O)C%17)O[C@@H](n%17cc(C)c(=O)[nH]c%17=O)C%16)O[C@@H](n%16cnc%17c(=O)[nH]c(N)nc%17%16)C%15)O[C@@H](n%15ccc(N)nc%15=O)C%14)O[C@@H](n%14cnc%15c(=O)[nH]c(N)nc%15%14)C%13)O[C@@H](n%13ccc(N)nc%13=O)C%12)O[C@@H](n%12ccc(N)nc%12=O)C%11)O[C@@H](n%11cnc%12c(N)ncnc%12%11)C%10)O[C@@H](n%10cc(C)c(=O)[nH]c%10=O)C9)O[C@@H](n9cc(C)c(=O)[nH]c9=O)C8)O[C@@H](n8cc(C)c(=O)[nH]c8=O)C7)O[C@@H](n7cc(C)c(=O)[nH]c7=O)C6)O[C@@H](n6cc(C)c(=O)[nH]c6=O)C5)O[C@@H](n5cnc6c(=O)[nH]c(N)nc65)C4)O[C@@H](n4cc(C)c(=O)[nH]c4=O)C3)O[C@@H](n3cnc4c(=O)[nH]c(N)nc43)C2)O[C@@H](n2cnc3c(=O)[nH]c(N)nc32)C1 (stereo partly shown)	Kaposi's sarcoma-associated herpesvirus	Western blot	BCBL1 cells	concentration not given	baseline: mock-treated	LANA protein level	no effect
Nc1ccc2nc3ccc(=O)cc-3oc2c1	Mycobacterium tuberculosis	–	mc2 6206 PA-824-resistant ddn mutant	7 days	–	MIC90	4.8 µM (≈ 1.02 µg/mL)
O=[N+]([O-])c1cn2c(n1)OC[C@@H](OCc1ccc(OC(F)(F)F)cc1)C2	Mycobacterium bovis	–	BCG Tac^r9.1, thyA S125P missense	TA-C-resistant thyA mutant	–	MIC50	0.2 µM (≈ 0.0719 µg/mL)
CCc1nc(N)nc(N)c1C#C[C@@H](C)c1cc(OC)cc(-c2ccc(C(=O)O)cc2)c1	Mycobacterium tuberculosis	–	PAS-resistant folC E153G	–	–	MIC	0.125 µg/mL
N=C(N)NCCC[C@H](NC(=O)[C@H](CCCNC(=N)N)NC(=O)[C@H](Cc1c[nH]c2ccccc12)NC(=O)[C@H](Cc1c[nH]c2ccccc12)NC(=O)[C@H](CCCCN)NC(=O)[C@H](Cc1c[nH]c2ccccc12)NC(=O)[C@H](Cc1c[nH]c2ccccc12)NC(=O)[C@H](CCCNC(=N)N)NC(=O)[C@@H](N)CCCCN)C(N)=O	Mycobacterium bovis	–	TMC 1012, 7H9 broth	48 h, 37 °C, with: sodium pyruvate 40 mM	–	MIC	20 µM
